Measured values pooled from the literature.
Lines come from different studies, so protocols differ.

C=CCn1c(=O)c2cnc(Nc3ccc(N4CCN(C)CC4)cc3)nc2n1-c1ccc2c(n1)[C@@](O)(CC)CC2  Cmax (OVCAR-3, female NOD/SCID mouse xenograft, plasma; oral, 60 mg/kg once daily): 3710 ng/mL
CN1C(=O)[C@@H](NC(=O)c2nnc(Cc3ccccc3)[nH]2)COc2cccnc21  Cmax (healthy human, fasted, plasma; oral, 30 mg single dose, geometric mean): 692 ng/mL
CC[C@H](C)[C@@H]1NC(=O)[C@@](C)(NC(=O)[C@H](CCCNC(=N)N)NC(=O)[C@H](CC(C)C)NC(=O)[C@@H](NC(=O)[C@H](CCC(N)=O)NC(=O)[C@H](CC(C)C)NC(C)=O)[C@@H](C)O)CCCC=CCCC[C@@](C)(C(=O)N[C@@H](CC(C)C)C(=O)N[C@@H](Cc2ccc3ccccc3c2)C(N)=O)NC(=O)[C@H](CCCNC(=N)N)NC(=O)[C@H](CCC(N)=O)NC1=O  Cmax (BALB/c mouse, plasma; iv, 5 mg/kg): 47400 ng/mL
CCc1nc(C(N)=O)c(Nc2ccc(N3CCC(N4CCN(C)CC4)CC3)c(OC)c2)nc1NC1CCOCC1  Cmax (Japanese patients, plasma; oral, 300 mg, cycle 0 day -2, single dose, mean): 292 ng/mL
CC1(C)c2nc(-c3ccc(F)cc3)c(Nc3ccc(F)cc3)n2CCN1C(=O)CN  Cmax (NMRI mouse Plasmodium berghei-infected, blood; oral, 5 mg/kg, monotherapy): 1020 nM
O=C(O)C[C@H](O)C[C@H](O)/C=C/c1c(C2CC2)nc2ccccc2c1-c1ccc(F)cc1  Cmax (FVB wild-type mouse, plasma; oral, 5 mg/kg, with: silymarin 500 mg/kg oral): 34 nM
CCn1cc(C(=O)N2CCOCC2)c(=O)c2cc(NC3Cc4ccccc4C3)cnc21  Cmax (human, fasted; oral suspension, 50 mg single dose, arithmetic mean): 248 ng/mL
CN(C(=O)n1cnc(-c2cccnc2)c1)[C@H]1CC[C@H](O)CC1  Cmax (cynomolgus monkeys, plasma; oral, 1.0 mg/kg): 30.6 ng/mL
CCOc1c([C@H](C)n2nc(C)c3c(N)ncnc32)cc(Cl)c(F)c1[C@@H]1CNC(=O)C1  Cmax (patients, monotherapy; oral, 5 mg once daily, cycle 1 day 1): 354 nM
CN(C(=O)n1cnc(-c2ccc[n+]([O-])c2)c1)C1CCCCC1  Cmax (cynomolgus monkey, male, plasma; oral, 1.0 mg/kg): 503 ng/mL
CN1CCC[C@H](CN2c3ccccc3Sc3ccccc32)C1.Cl  Cmax (fasted female ICR mouse, liver; oral, 16 mg/kg): 9860 ng/g
CC(C)(C)OC(=O)Nc1ccc(-c2cc(C(=O)NCCCCCCC(=O)NO)no2)cc1  viability (HBL-1; 0.5 µM, 120 h): 0.19%
CNC(=O)c1ccc(-c2cnc3ncc(Cc4ccc5ncccc5c4)n3n2)cc1F  Cmax (human, plasma; oral, 200 mg, mean): 1470 ng/mL
O=c1ncccn1[C@@H]1O[C@H](CO)[C@@H](O)[C@H]1O  viability (HBL-1; 0.1 µM, 120 h): 122%
COc1nc(-c2cc(C)c(N[C@@H](C)c3cc(F)cc(F)c3)nn2)ccc1-n1cnc(C)c1  Cmax (cynomolgus monkey, male, plasma; oral, nasogastric, 2 mg/kg): 304 ng/mL

Excerpt of the above:
O=c1ncccn1[C@@H]1O[C@H](CO)[C@@H](O)[C@H]1O  viability (HBL-1; 0.1 µM, 120 h): 122%
